Assay results gathered from unrelated publications.
Compare with care: the assays were run in different laboratories. Numbers after ± are the reported error. In brackets after ≈: the same amount, converted by molar mass.

Nc1cc2c3ccccc3ccc2c2ccccc12
menadione reductase activity (inducer; female rat, liver; oral, 1 mg, 24 h, sesame oil vehicle): 22.9 enzyme units

COC(=O)C=Cc1ccc(O)c(O)c1
radical scavenging (DPPH; ethanol; 20 µM, 30 min, room temperature): 72%

insulin aspart
AUC glucose infusion rate (euglycaemic clamp; type 1 diabetes patients; subcutaneous, 0.2 U/kg single, 2 h to 12 h, antibody quartile 4, 15.84-66.94 %B/T): 775 mg/kg

insulin
baseline 18F-FDG SUV (PET imaging; CD IGS rat, ipsilateral lateral gastrocnemius; intra-arterial (left femoral), 0.34-0.346 IU/kg): 0.222 ± 0.232

COc1ccc(-c2nc3ccccc3s2)cc1OCc1nnc(-c2ccc(N)cc2)o1
minimal effective dose (seizure protection; albino mouse, scPTZ-induced seizure; ip, 0.5 h): 30 mg/kg

C=CCN1C[C@H](C(=O)N(CCCN(C)C)C(=O)NCC)C[C@@H]2c3cccc4[nH]cc(c34)C[C@H]21
nadir median prolactin (giant prolactinoma patients; mean 1.70 mg/week, mean 11.78 months): 47.2 ng/mL

glutathione
IC50 (hydroxyl radical scavenging; 60 min, pH 7.4): < 15 µg/mL

CC[C@@H](C(=O)Nc1ccc(C(N)=O)c(F)c1)n1cc(OC)c(-c2cc(Cl)ccc2-n2cc(C(F)(F)F)nn2)cc1=O
EC150 (APTT prolongation; human plasma): 0.61 µM

CCN(CC)C(=S)SSC(=S)N(CC)CC
dead cells (7-AAD flow cytometry; human whole blood; 30 µM, 4 h, 37 °C, together with: LPS plus nigericin): 7%

COc1ccc(-c2nc3ccccc3s2)cc1OCc1nnc(-c2ccc([N+](=O)[O-])cc2)o1
minimal effective dose (seizure protection; albino mouse, scPTZ-induced seizure; ip, 0.5 h): 30 mg/kg

CC(C)(O)c1ccccc1-c1ccc2[nH]c(/C=C/c3ccc(C(F)(F)F)cc3)nc2c1
plasma concentration (human, UVB-sensitized skin; max heat pain tolerance): > 50 ng/mL

Cc1cnc(-c2ccnc(C(C)(C)O)n2)cc1-n1c(C)cc(OCc2ncc(F)cc2F)c(Cl)c1=O
IC80 (IL-1β release, inhibitor; human, whole blood, ex vivo; plasma concentration, together with: LPS): 0.0408 µg/mL (≈ 0.0794 µM)

COc1ccc(-c2nc3ccccc3s2)cc1OCc1nnc(-c2ccc(Cl)cc2)o1
minimal effective dose (seizure protection; albino mouse, scPTZ-induced seizure; ip, 0.5 h): 100 mg/kg

neuropeptide Y
time to peak bradycardia (Sprague Dawley rat, urethane-anaesthetised; intravenous, 5 nmol): 1.8 ± 0.3 min

COc1cc([C@H]2Oc3cc(O)cc(O[C@@H]4O[C@H](C(=O)O)[C@@H](O)[C@H](O)[C@H]4O)c3C[C@H]2O)ccc1O
LTP fEPSP slope (Tg2576 mouse old, hippocampal slices CA1; 300 nM, together with: theta-burst stimulation; reference: baseline): 225 ± 15%

COc1ccc(-c2nc3ccccc3s2)cc1OCc1nnc(C(c2ccccc2)c2ccccc2)o1
minimal effective dose (hind limb tonic extension; albino mouse, MES-induced seizure; ip, 0.5 h): 100 mg/kg

CC(C)=CCOc1c2occc2cc2ccc(=O)oc12
GST activity (female SENCAR mice, liver cytosol; oral, 70 mg/kg, 4 days, together with: CDNB substrate; reference: corn oil vehicle, maximum induction): 260%

CCCCCCCC/C=C\CCCCCCCC(=O)O
serum total bilirubin (neonatal hUGT1 mice; oral, dose not given, 48 h): 2.4 mg/dL

CC(C)(O)CNc1nc(Nc2ccnc(C(F)(F)F)c2)nc(-c2cccc(C(F)(F)F)n2)n1
plasma 2-HG reduction AUEC0-24 (refers to: 2-hydroxyglutarate; human newly diagnosed mIDH AML; oral, 100 mg once daily, induction cycle 1 day 1, together with: induction chemotherapy): 18.7%

For quick reference, copied from above:
COc1ccc(-c2nc3ccccc3s2)cc1OCc1nnc(-c2ccc(N)cc2)o1
minimal effective dose (seizure protection; albino mouse, scPTZ-induced seizure; ip, 0.5 h): 30 mg/kg
